{"data": "Experimental data pooled from the literature", "target": "Voltage-gated inwardly rectifying potassium channel KCNH2 (KCNH2, Homo sapiens, UniProt Q12809)", "note": "Compare with care: the assays were run in different laboratories. Several values in a cell are separate wells, animals, samples, runs or records. Numbers after ± are the reported error.", "sequence of UniProt Q12809 (whole entry, looked up)": "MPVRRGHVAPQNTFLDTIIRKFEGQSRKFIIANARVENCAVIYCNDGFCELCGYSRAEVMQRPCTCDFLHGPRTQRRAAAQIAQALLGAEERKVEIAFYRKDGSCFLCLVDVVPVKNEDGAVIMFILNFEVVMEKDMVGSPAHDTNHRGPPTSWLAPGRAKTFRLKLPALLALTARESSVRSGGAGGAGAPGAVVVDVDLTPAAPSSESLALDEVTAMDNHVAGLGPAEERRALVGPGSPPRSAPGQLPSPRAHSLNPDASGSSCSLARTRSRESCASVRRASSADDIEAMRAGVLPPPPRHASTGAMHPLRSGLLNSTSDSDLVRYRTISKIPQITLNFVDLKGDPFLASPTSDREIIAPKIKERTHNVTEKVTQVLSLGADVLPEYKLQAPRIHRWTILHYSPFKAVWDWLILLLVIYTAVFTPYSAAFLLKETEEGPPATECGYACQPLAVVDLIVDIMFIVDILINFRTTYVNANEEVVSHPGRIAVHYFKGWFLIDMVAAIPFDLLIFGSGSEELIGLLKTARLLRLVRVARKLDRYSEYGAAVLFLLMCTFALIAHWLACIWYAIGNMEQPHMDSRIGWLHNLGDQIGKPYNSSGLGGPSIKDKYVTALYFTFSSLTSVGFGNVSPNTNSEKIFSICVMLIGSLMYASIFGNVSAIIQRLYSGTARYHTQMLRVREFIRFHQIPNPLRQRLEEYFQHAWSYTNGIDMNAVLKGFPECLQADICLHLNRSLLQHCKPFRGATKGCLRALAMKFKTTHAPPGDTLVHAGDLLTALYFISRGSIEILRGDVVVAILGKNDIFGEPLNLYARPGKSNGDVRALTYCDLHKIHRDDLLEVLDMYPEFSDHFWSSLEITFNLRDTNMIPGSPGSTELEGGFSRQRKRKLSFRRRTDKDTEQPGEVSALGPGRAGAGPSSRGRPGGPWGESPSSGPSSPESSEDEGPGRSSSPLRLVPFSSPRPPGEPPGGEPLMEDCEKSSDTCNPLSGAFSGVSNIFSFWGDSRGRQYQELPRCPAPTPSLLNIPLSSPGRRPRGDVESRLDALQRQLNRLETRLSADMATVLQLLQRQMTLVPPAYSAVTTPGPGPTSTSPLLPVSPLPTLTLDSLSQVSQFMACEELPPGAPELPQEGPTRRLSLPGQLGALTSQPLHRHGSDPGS"}
{"SMILES": "CC1(C)CN(C(=O)Cn2c(=O)c(C(=O)NCc3ccc(Cl)cc3)cc3nccnc32)C1", "test": "ion current, inhibitor", "measurement": "Hill slope", "result": 0.76}
{"SMILES": "CCOc1cc(-c2nncn2C)ccc1Nc1ncc2cc(C)nc(NCC(C)(C)C)c2n1", "conditions": "1 µM", "measurement": "inhibition", "result": "14.1%"}
{"SMILES": "CC1(F)CN(C(=O)Cn2c(=O)c(C(=O)NCc3ccc(Cl)cc3)cc3nc(N4CCCC4=O)cnc32)C1", "how to read": "reference: hERG IC50 over antiviral EC50", "measurement": "therapeutic index", "result": "> 235"}
{"SMILES": "Clc1cccc(OC[C@@H]2CN(CCN3CCc4ccccc43)CCO2)c1", "test": "potassium current inhibition, inhibitor, PatchXpress electrophysiology", "measurement": "Hill slope", "result": "0.49 ± 0.3"}
{"SMILES": "CC(C)c1noc2ncc(C(=O)c3ccccc3O)cc12", "test": "ion current, whole-cell patch-clamp", "test system": "HEK-293T", "conditions": "10 µM", "measurement": "inhibition", "result": "8.54%"}
{"SMILES": "CC1(F)CN(C(=O)Cn2c(=O)c(C(=O)NCc3ccc(Cl)cc3)cc3nc(N4CCNC4=O)cnc32)C1", "test": "ion current, inhibitor", "measurement": "Hill slope", "result": 0.51}
{"SMILES": "O=C(NO)c1ccc(CN2CCCCc3ccccc32)c(F)c1", "test": "radioligand binding", "conditions": "10 µM", "measurement": "inhibition of radioligand binding", "result": "16%"}
{"SMILES": "Cc1ccc2c(c1)C(=O)[C@]1(O)CCN(c3ccc4nc(C)ccc4c3)C1=N2.Cl", "test": "ion channel panel", "test system": "human cells", "conditions": "concentration not given", "measurement": "inhibition", "result": "< 25%"}
{"SMILES": "O=C(Nc1ccc(S(=O)(=O)N2CCC(Cl)CC2)cc1)c1ccc([N+](=O)[O-])o1", "conditions": "10 µM, 60 min, pH 7.4", "measurement": "inhibition", "result": "32%"}
{"SMILES": "c1cncc(OC[C@@H]2CN(CCN3CCc4ccccc43)CCO2)c1", "test": "potassium current inhibition, inhibitor, PatchXpress electrophysiology", "measurement": "Emax", "result": "68 ± 9.8%"}
{"SMILES": "CC1(F)CN(C(=O)Cn2c(=O)c(C(=O)NCc3ccc(Cl)cc3)cc3nc(N4CCN(CC(=O)O)C4=O)cnc32)C1", "test": "ion current, inhibitor", "measurement": "Hill slope", "result": 0.5}
{"SMILES": "NC/C(=C\\F)COc1cccc(Cn2c(=S)[nH]c(=O)c3[nH]cnc32)c1", "test": "ion current", "conditions": "10 µM", "measurement": "inhibition", "result": "< 50%"}
{"SMILES": "Cc1ccc2c(c1)nc(/C=C/c1cccc3cccnc13)n2-c1cccc(OCCCN2CCN(C)CC2)c1.Cl", "test": "tail current, inhibitor", "measurement": "Hill slope", "result": 1.27}
{"SMILES": "O=C1c2ccccc2CCCN1CCCCN1CCN(c2ccccn2)CC1", "test": "potassium current inhibition, inhibitor, PatchXpress electrophysiology", "measurement": "Emax", "result": "95.2 ± 5.2%"}
{"SMILES": "CN(C)c1ccc2cc(C(=O)NS(=O)(=O)c3ccccc3-c3ccccc3)oc2c1", "test": "automated patch clamp", "conditions": "concentration not given", "measurement": "hERG inhibition", "result": "negative"}
{"SMILES": "COc1cc(N)c(Cl)cc1C(=O)NC1CCN(CCCOc2ccc(F)cc2)CC1OC (stereo not shown)", "test": "ion current, inhibitor, whole-cell patch clamp", "test system": "CHO expressing hERG", "conditions": "0.3 µM", "measurement": "inhibition", "result": "98.9 ± 0.85%"}
{"SMILES": "COc1cc2c(cc1OC)C(=O)N(CCCCN1CCN(c3ccccc3OC)CC1)C2", "test": "potassium current inhibition, inhibitor, PatchXpress electrophysiology", "measurement": "Hill slope", "result": 1}
{"SMILES": "CC1(F)CN(C(=O)Cn2c(=O)c(C(=O)NCc3ccc(Cl)cc3)cc3nc(N4CCOC4=O)cnc32)C1", "how to read": "reference: hERG IC50 over antiviral EC50", "measurement": "therapeutic index", "result": 19}
{"SMILES": "Cn1cc2c(C(=O)O)ccc(NS(=O)(=O)c3ccc(OCC4CCC4)c(Cl)c3)c2n1", "test": "binding", "measurement": "Ki", "result": "> 80 µM"}
{"SMILES": "Cc1ccc(C(=O)Nc2ccc3ccccc3c2)o1", "test": "ion current, inhibitor, whole-cell patch clamp", "test system": "HEK293T transfected", "conditions": "10 µM, pH 7.4", "measurement": "inhibition", "result": "15.1% and 11.6% and 12.7% and 20.9% and 8.2%"}
{"SMILES": "CC1(F)CN(C(=O)Cn2c(=O)c(C(=O)NCc3ccc(Cl)cc3)cc3nccnc32)C1", "how to read": "reference: hERG IC50 over antiviral EC50", "measurement": "therapeutic index", "result": 1.6}
{"SMILES": "CC(C)(C)NCc1ccc(Nc2ccnc3cc(Cl)ccc23)cc1O", "test": "thallium flux, blocker", "conditions": "100 µM, 30 min", "how to read": "reference: control", "measurement": "inhibition", "result": "> 50%"}
{"SMILES": "Cc1cc(/C=C/C#N)cc(C)c1Nc1ccnc(Nc2ccc(C#N)cc2)n1", "test": "hERG current, manual patch clamp", "test system": "CHO stably expressing hERG", "conditions": "0.3 µM", "measurement": "inhibition", "result": "19.8%"}
{"SMILES": "Clc1cncc(OC[C@@H]2CN(CCN3CCc4ccccc43)CCO2)c1", "test": "potassium current inhibition, inhibitor, PatchXpress electrophysiology", "measurement": "Emax", "result": "89.9 ± 10%"}
{"SMILES": "CNCCN1CCN(c2cnc3c(cc(C(=O)NCc4ccc(Cl)cc4)c(=O)n3CC(=O)N3CC(C)(F)C3)n2)C1=O.Cl", "how to read": "reference: hERG IC50 over antiviral EC50", "measurement": "therapeutic index", "result": "> 190 and > 120"}
{"note": "A few entries again:"}
{"SMILES": "CN(C)c1ccc2cc(C(=O)NS(=O)(=O)c3ccccc3-c3ccccc3)oc2c1", "test": "automated patch clamp", "conditions": "concentration not given", "measurement": "hERG inhibition", "result": "negative"}
{"SMILES": "COc1cc(N)c(Cl)cc1C(=O)NC1CCN(CCCOc2ccc(F)cc2)CC1OC (stereo not shown)", "test": "ion current, inhibitor, whole-cell patch clamp", "test system": "CHO expressing hERG", "conditions": "0.3 µM", "measurement": "inhibition", "result": "98.9 ± 0.85%"}
{"SMILES": "COc1cc2c(cc1OC)C(=O)N(CCCCN1CCN(c3ccccc3OC)CC1)C2", "test": "potassium current inhibition, inhibitor, PatchXpress electrophysiology", "measurement": "Hill slope", "result": 1}
{"SMILES": "CC1(F)CN(C(=O)Cn2c(=O)c(C(=O)NCc3ccc(Cl)cc3)cc3nc(N4CCOC4=O)cnc32)C1", "how to read": "reference: hERG IC50 over antiviral EC50", "measurement": "therapeutic index", "result": 19}
